Results pooled from the literature.
Compare with care: the assays were run in different laboratories. Several values in a cell are separate wells, animals, samples, runs or records.
Target: Testis-specific serine/threonine-protein kinase 1 (TSSK1B, Homo sapiens, UniProt Q9BXA7)

`CN1CCN(Cc2ccc(NC(=O)c3cccc(C#Cc4cnc(N)c5ncccc45)c3)cc2C(F)(F)F)CC1` gave a remaining binding of 81% (cell-free assay, competition with immobilised ligand; 0.5 µM).
For `O=C=[N][Ru-4]123([n]4c5ccc(O)cc5c5c6c(c7cc(F)c[n+]1c7c54)C(=O)NC6=O)[S+]1CC[S+]2CC[S+]3CC1` (stereo not shown), the remaining activity was 50% (enzyme activity; 100 nM, human enzyme, added: 10 µM ATP; reference: untreated).
For `Cc1nc2c(F)cc(-c3nc(Nc4ccc(CNC(=O)CCCCCCC(=O)NO)cc4)ncc3F)cc2n1C(C)C`, the inhibition was 77% (enzyme activity, inhibitor; 1 µM).
`COc1ccc(NC(=O)Nc2ccc3c(c2)C(=O)N(C(C)CO)CC(C)C(CN(C)Cc2ccc4c(c2)OCO4)O3)cc1` (stereo not shown) has a remaining binding of 57% (binding, competition with immobilised ligand; 10 µM).
The remaining binding of `CNS(=O)(=O)Nc1nccc(Cc2c(C)c3ccc(Oc4ncccc4F)cc3oc2=O)c1F` is reported as 100% (binding, competition with immobilised ligand; 10 µM).
With `C=CC(=O)N1CCCC(n2c(=O)c3ncccc3n(Cc3ccc(Oc4ccccc4)cc3)c2=O)C1` (stereo not shown) the remaining binding was 95% (cell-free assay, competition with immobilised ligand; 1 µM).
The remaining binding of `COc1cc(Nc2nccc(-c3cnn4nc(OC)ccc34)n2)cc(C(F)(F)F)c1` is reported as 100% (binding, competition with immobilised ligand; 1 µM).
For `Nc1ncc(-c2cc(-c3cnn(CC(F)(F)F)c3)ncc2F)nc1C(=O)NC1CNCC(F)C1` (stereo not shown), the remaining activity was 80.8% (enzyme activity; 1 µM; reference: DMSO control).
`COCC12C(=O)NC3C4(C(OC)CC1O)C1CC5(O)C(OC)C(O)C(OC(C)=O)(C1C5OC(=O)c1ccccc1)C3(O)C(OC)C24` (stereo not shown) has a remaining activity of 69% and 96% (kinase activity, inhibitor, ProQinase kinase profiling; 25 µM; reference: control).
The inhibition of `NC(=O)[C@@H](O)C[C@H]1CCc2sc3ncnc(O[C@H]4CC[C@H](N5CCOCC5)CC4)c3c21` is reported as -3% (enzyme activity, inhibitor; 10 µM).
The inhibition of `C=CC(=O)Nc1cccc(-c2cnc3[nH]cc(C(=O)NC(C)(C)C)c3n2)c1` is reported as 15% and 14% (kinase activity; 0.1 µM).
For `Cc1ccc(-c2c(/C=C(\C#N)C(=O)NC(C)C)n(CCCO)c3ncnc(N)c23)cc1`, the remaining binding was 100% (cell-free assay, competition with immobilised ligand; 1 µM).
With `CN1CCN(Cc2ccc(-c3ccc(CO[C@H]4CCC[C@@H]4NC(=O)c4cc(-c5cnn(C)c5)cnc4N)cc3)cc2)CC1` the inhibition was 14% (enzyme activity, inhibitor; 0.1 µM).
`C=CC(=O)N1CCc2ccc(-n3c(=O)ccc4cnc5ccc(-c6cnn(C)c6)cc5c43)cc21` gave a remaining binding of 96% (KINOMEscan; 1 µM; reference: DMSO control).
`CNC(=O)C1CCN(c2cc(C)c(F)cc2NC(=O)c2ccc(-c3cc(O)ccc3C)c(C)c2)CC1` gave a remaining binding of 90% (binding, competition with immobilised ligand; 1 µM).
The inhibition of `C=CC(=O)N1Cc2nc(-c3cc(-c4cc(Cl)cnc4Cl)c(F)cc3F)n(-c3ccncn3)c2C1` is reported as 10.3% (cell-free assay, inhibitor; 1 µM).
`COc1ccc(O)cc1-c1c[nH]c2ncc(-c3cncc(C(=O)N(C)C)c3)cc12` gave an inhibition of -9.41% (binding, competition with immobilised ligand; 0.2 µM).
`Cc1cccc(O[C@H]2CCC[C@@H](C(C)CNCc3ccncc3)C2)c1` (relative stereo) has an inhibition of -7% (enzyme activity, inhibitor; 10 µM).
With `CN1CC[C@@H](COc2cnc(C#N)cc2-c2ccn3nc(NC(=O)C4CC4)cc3c2)C1` the inhibition was 3% (enzyme activity, inhibitor; 1 µM).

A few entries again:
For `O=C=[N][Ru-4]123([n]4c5ccc(O)cc5c5c6c(c7cc(F)c[n+]1c7c54)C(=O)NC6=O)[S+]1CC[S+]2CC[S+]3CC1` (stereo not shown), the remaining activity was 50% (enzyme activity; 100 nM, human enzyme, added: 10 µM ATP; reference: untreated).
